Results of several laboratories.
A part holds a random share of what one study measured. Substitutions count along the parent as printed.

Block 1
Target: Ras GTPase-activating protein-binding protein 1, full length (G3BP1, Homo sapiens, UniProt Q13283)
Sequence of UniProt Q13283 (whole entry, looked up): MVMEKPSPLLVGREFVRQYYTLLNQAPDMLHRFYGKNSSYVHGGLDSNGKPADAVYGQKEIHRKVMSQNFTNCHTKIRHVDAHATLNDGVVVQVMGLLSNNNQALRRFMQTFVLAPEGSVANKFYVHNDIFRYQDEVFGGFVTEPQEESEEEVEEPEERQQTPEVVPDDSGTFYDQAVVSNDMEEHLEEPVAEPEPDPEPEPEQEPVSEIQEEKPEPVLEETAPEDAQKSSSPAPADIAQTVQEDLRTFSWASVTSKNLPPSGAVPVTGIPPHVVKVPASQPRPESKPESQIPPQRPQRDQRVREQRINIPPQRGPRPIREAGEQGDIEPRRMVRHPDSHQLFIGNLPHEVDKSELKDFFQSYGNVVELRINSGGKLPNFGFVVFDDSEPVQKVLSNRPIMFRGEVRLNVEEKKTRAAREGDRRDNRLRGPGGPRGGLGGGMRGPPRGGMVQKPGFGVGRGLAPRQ
Method: RNA Bind-n-Seq
Molecule type: RNA
Matrix: in vitro
Tested at: 200 nM
Notes: whole 134-nt RNA, ends assumed
With: 150 mM KCl
Baseline: input library
Reading: higher = stronger binding
| Strand | log2 enrichment |
| --- | --- |
| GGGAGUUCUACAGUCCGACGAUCCUCAAGUCCUGUGCUACACAUCGUAUGUACCGAAUCGGAAAGGAAAGGAAAGGGAAAGUAUUAUGUUACGCCGUUCGGAUCUGCACUUCCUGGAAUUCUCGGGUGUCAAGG | -0.671 |
| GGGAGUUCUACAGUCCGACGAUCUGGUAGGUGGAUUUUGUUUAUUUUUUUAGCUCAUUUCCAGGGGUGGGAAUUUUUUUUUAAUAUGUGUCAUGAAUAAAGUUGUUUUUGAAAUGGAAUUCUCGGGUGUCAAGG | -0.383 |
| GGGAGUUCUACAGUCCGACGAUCCACAGACAAUACGCACCCACACAGACACAGAGGGAAGGGGUUGGGAUGGGGACAGGGUGCACAGCAGGGCGGGGUAGGACCCCAGCCCCUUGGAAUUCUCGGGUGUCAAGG | 1.94 |
| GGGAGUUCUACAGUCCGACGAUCCAAGUCCUGUGCUACACAUCGUAUGUACCGAAUCGGGGUUUGGUUUGGGGUUUGGGAAAGUAUUAUGUUACGCCGUUCGGAUCUGCACUUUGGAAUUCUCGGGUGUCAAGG | 0.206 |
| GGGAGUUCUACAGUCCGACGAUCUGGGAGGUGGAUUUUGUUGAUUUUUUUAGCUCAUUUCCAGGGGUGGGAAUUUUUUUUUAAUAUGUGUCAUGAAUAAAGUUGUUUUUGAAAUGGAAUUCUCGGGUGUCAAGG | 0.652 |
| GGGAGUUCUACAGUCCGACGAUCUGGGAGGUGGAUUUUGUUUAUUUUUUUAGCUCAUUUCCAGGGGUAGGAAUUUUUUUUUAAUAUGUGUCAUGAAUAAAGUUGUUUUUGAAAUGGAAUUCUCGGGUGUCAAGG | -0.289 |
| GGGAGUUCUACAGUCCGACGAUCAAGUCCUGUGCUACACAUCGUAUGUACCGAAUCGGGUUUGGGUUUUUUUGGGAGGGAAAGUAUUAUGUUACGCCGUUCGGAUCUGCACUUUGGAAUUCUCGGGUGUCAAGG | 0.275 |
| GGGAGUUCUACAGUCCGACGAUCCUGUGCUACACAUCGUAUGUACCGAAUCGGGGAAAAAAAGGAAAAAAAGGGAAAAAAAGGGGAAAGUAUUAUGUUACGCCGUUCGGAUCUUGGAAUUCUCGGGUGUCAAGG | -0.617 |
| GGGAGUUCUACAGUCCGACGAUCUGGCCCUGGUGGCAUGCGGGGAGGAAGAGGUGGCCUCAUGGAUCGUGGUGGUCCCGGUGGAAUGUUCAGAGGUGGCCGUGGUGGAGAUAGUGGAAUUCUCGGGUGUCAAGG | 0.336 |
| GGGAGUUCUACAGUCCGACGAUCAGUCCUGUGCUACACAUCGUAUGUACCGAAUCGGGGAGGGGUGGGGAAAAAAAGGGGAAAGUAUUAUGUUACGCCGUUCGGAUCUGCACUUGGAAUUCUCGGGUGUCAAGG | 0.553 |

Block 2
Target: CCNB2, cyclin fold, Cln2 fusion (human)
Method: yeast growth competition, sequencing
Matrix: yeast
Notes: weak parent motif
Baseline: not given
Reading: higher = stronger binding
Parent: GMNC docking peptide (human); KNAKRNLSSEFAN
| Variant | normalised enrichment score |
| --- | --- |
| S9C | 0.59 |
| S8I | 0.997 |
| N6P | -0.0894 |
| A12H | 0.208 |
| S8L | 1.13 |
| K4H | -0.178 |
| L7E | 0.51 |
| E10A | 0.244 |
| S9N | 0.924 |
| N6K | 0.12 |
| A12Q | 0.067 |
| F11P | -0.322 |
| L7I | 0.0813 |
| E10G | 0.47 |
| N6T | 0.423 |
| A3K | 0.515 |

Block 3
Target: RNA binding protein fox-1 homolog 2, RRM domain, GST-SBP tag (RBFOX2, Homo sapiens, UniProt O43251-10, residues 100-194)
Method: RNA Bind-n-Seq
Molecule type: RNA
Matrix: in vitro
Tested at: 365 nM
Notes: natural RNA segment, single round, ends assumed
Baseline: no-protein control
Reading: higher = stronger binding
Construct (chain): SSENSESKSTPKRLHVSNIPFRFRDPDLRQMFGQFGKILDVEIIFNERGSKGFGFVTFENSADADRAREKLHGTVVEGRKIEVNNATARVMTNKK
| Strand | RBNS enrichment (R) |
| --- | --- |
| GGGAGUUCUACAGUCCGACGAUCUACUUUGAGUGGAAUGUUCAUUAAUGUAAAUUGUAUUUAUUUUUAUACUUUUAUUUUCACUAGUUUUGCUUCUAGGCAAAAAGCAAAAUAAACUUUUCAUCUUAAAGAAAUGGAAUUCUCGGGUGCCAA | 0.568 |
| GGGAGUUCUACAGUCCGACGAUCCAUUCCUCUUACUGGGGCCUGGGGCUCUAGCCCAAGGCUCAGAGGAGCCAAUAAACCUGUAAAUGAAUAGACGCAUGUUUGAGUGAGUAAAUGGGCCUUUAAAGGGGAGCUGGAAUUCUCGGGUGCCAA | 2.69 |
| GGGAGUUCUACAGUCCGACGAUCUCACGAGACAAUGAAAAUGCAGAGACUGAACUUGGGGGUCGUUCUGUGCCUUCCAGCAUCUUGUACAGCAAACCCUGACUUGUCUUUAUACCCCCAAAAUACCGUCUUCAUGGAAUUCUCGGGUGCCAA | 1.11 |
| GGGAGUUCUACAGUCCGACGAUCCAUGAAGGACCCCCAUACAGCCUGUCUCCCACCCCUGACAACCCGAGAGGGCAUAUGGGGCCCUGCCAACACCACUUCCUCAGCAGAAACCCGUCAUGACGCGGCUGCUUUGGAAUUCUCGGGUGCCAA | 0.435 |
| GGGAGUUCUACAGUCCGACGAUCCCGCAGCUCCAUUUUCUUAUUGCGCUGCUACCGUUGACUUCCAGGCACGGUUUGGAAAUAUUCACAUCGCUUCUGUGUAUCUCUUUCACAUUGUUUGCUGCUAUUGGAGGUGGAAUUCUCGGGUGCCAA | 0.324 |
| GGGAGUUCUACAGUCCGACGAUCUUUGUCUUGGAACCACCAGUCUAGUCCGUCCUGGCACAGAAGAGGAGUCAAGUAAUGGAGGUCCCAGCCCUGGGGGUUUAAGCUCUGCCCCUUCCCCAUGAACCCUGCCCUGGAAUUCUCGGGUGCCAA | 0.478 |
| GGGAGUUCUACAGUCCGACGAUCGACACGUAGCAGCUUAGACUAAGGCCAUUAUUGUACUUGCCUUAUUAGAGUGUCUUUCCACGGAGCCACUCCUCUGACUCAGGGCUCCUGGGUUUUGUAUUCUCUGAGCUUGGAAUUCUCGGGUGCCAA | 0.601 |
| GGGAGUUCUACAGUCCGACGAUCUUCUGCCCCCAGCCCCACCCCCCAACCAGUCUGCCUGUUGCCCCACUCAGCCCUGAGUGUUAGGCACUGGCAGAGAGGCAAUGGCAGGCUCACCUUGAUGGAGGGACUGGUGGAAUUCUCGGGUGCCAA | 0.487 |
| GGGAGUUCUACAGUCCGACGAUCAAACAGCAAGUGAUUUCAGAAUGUUGUAGGCCUCAUUAGAGCUUGGUCUCCAAAAAUCUGUUUGAAAAAAGCAACAUGUUCUUCACAGUGUUCCCCUAGAAAGGAAGAGAUGGAAUUCUCGGGUGCCAA | 0.606 |
| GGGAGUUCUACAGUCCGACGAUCAGAAUGUGCAGUGUCUUGUAACAACUAAUUAUAAUGCAAAUUAGGGCUACAUUGUAAUCUGCUUUGUUAAUGAAAAUGAUAAAACAGAAUAUUGACAAGCUAGGACACCUUGGAAUUCUCGGGUGCCAA | 0.478 |
| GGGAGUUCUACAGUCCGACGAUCCAGAGGAGAGAGGAGGCCGACGCCAGCGGUCCCCGCUCGGAACGGGGAGGGUUUUCGGGGGGUUCGGCGUCGCACCUUGGGGCCCCCCGCAGCCGUGUAGGGGGCCUCCCUGGAAUUCUCGGGUGCCAA | 0.565 |
| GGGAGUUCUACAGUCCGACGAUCAAGAGGAUAAAAGAAGCAUGAAUGAAAAGAAUGACAUUUCAAAAAAAUGGUUCAAUGAAAAACUAUAGCUAAAAUAUGUAAACCUUUCUAGGUAAACCGCUUGCCUUCAUUGGAAUUCUCGGGUGCCAA | 4.97 |

Block 4
Target: Histone acetyltransferase KAT6A, winged helix 1, GST fusion (KAT6A, Homo sapiens, UniProt Q92794, residues 1-85)
Method: protein binding microarray
Molecule type: double-stranded DNA, one strand shown
Matrix: in vitro
Tested at: not given
Notes: 8-mer, flanks averaged, mean of 2 arrays, mostly near background
Baseline: not given
Reading: higher = stronger binding
Residues (chain): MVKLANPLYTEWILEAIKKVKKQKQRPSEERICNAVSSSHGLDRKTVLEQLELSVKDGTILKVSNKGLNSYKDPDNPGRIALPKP
| Strand | E-score |
| --- | --- |
| AGCGGGAC | 0.327 |
| AGTTCGGA | -0.00972 |
| AGCACGCG | 0.224 |
| ATAGACAC | -0.168 |
| AAAACGAA | -0.175 |
| GAGGTAAC | 0.0382 |
| AATACATA | 0.0114 |
| GCCTCCAC | 0.0476 |
| ATCTACAA | -0.141 |
| GTAGCTTA | 0.0303 |
| CTGCATAA | -0.208 |
| CGGTAGGC | 0.154 |
| GAAATACC | 0.0034 |
| ACGAACAG | 0.0402 |
| ATGATCTC | -0.168 |
| GTAGGTAA | -0.151 |
| CTATGGAA | -0.145 |
| ACCTACCA | -0.33 |
| GTATGCAA | -0.148 |
| ACCAGCGA | -0.0067 |

For quick reference, copied from above (block 3):
| Strand | RBNS enrichment (R) |
| --- | --- |
| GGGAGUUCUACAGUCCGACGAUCUUUGUCUUGGAACCACCAGUCUAGUCCGUCCUGGCACAGAAGAGGAGUCAAGUAAUGGAGGUCCCAGCCCUGGGGGUUUAAGCUCUGCCCCUUCCCCAUGAACCCUGCCCUGGAAUUCUCGGGUGCCAA | 0.478 |
| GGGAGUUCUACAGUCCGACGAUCAAACAGCAAGUGAUUUCAGAAUGUUGUAGGCCUCAUUAGAGCUUGGUCUCCAAAAAUCUGUUUGAAAAAAGCAACAUGUUCUUCACAGUGUUCCCCUAGAAAGGAAGAGAUGGAAUUCUCGGGUGCCAA | 0.606 |
| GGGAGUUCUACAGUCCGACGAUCCAGAGGAGAGAGGAGGCCGACGCCAGCGGUCCCCGCUCGGAACGGGGAGGGUUUUCGGGGGGUUCGGCGUCGCACCUUGGGGCCCCCCGCAGCCGUGUAGGGGGCCUCCCUGGAAUUCUCGGGUGCCAA | 0.565 |
| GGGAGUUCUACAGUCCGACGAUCCCGCAGCUCCAUUUUCUUAUUGCGCUGCUACCGUUGACUUCCAGGCACGGUUUGGAAAUAUUCACAUCGCUUCUGUGUAUCUCUUUCACAUUGUUUGCUGCUAUUGGAGGUGGAAUUCUCGGGUGCCAA | 0.324 |
| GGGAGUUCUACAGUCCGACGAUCGACACGUAGCAGCUUAGACUAAGGCCAUUAUUGUACUUGCCUUAUUAGAGUGUCUUUCCACGGAGCCACUCCUCUGACUCAGGGCUCCUGGGUUUUGUAUUCUCUGAGCUUGGAAUUCUCGGGUGCCAA | 0.601 |
| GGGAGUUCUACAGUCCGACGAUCCAUUCCUCUUACUGGGGCCUGGGGCUCUAGCCCAAGGCUCAGAGGAGCCAAUAAACCUGUAAAUGAAUAGACGCAUGUUUGAGUGAGUAAAUGGGCCUUUAAAGGGGAGCUGGAAUUCUCGGGUGCCAA | 2.69 |
| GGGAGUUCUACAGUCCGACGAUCUUCUGCCCCCAGCCCCACCCCCCAACCAGUCUGCCUGUUGCCCCACUCAGCCCUGAGUGUUAGGCACUGGCAGAGAGGCAAUGGCAGGCUCACCUUGAUGGAGGGACUGGUGGAAUUCUCGGGUGCCAA | 0.487 |
